# Published values from different studies.
# Numbered parts are unrelated; each lists some results of a single study.

# Series 1 — read-out: enzyme activity; mode: inhibitor; concentration: 20 µM; notes: primary screen
# Target: Replicase polyprotein 1ab, main protease (rep, Severe acute respiratory syndrome coronavirus 2, UniProt P0DTD1)
SMILES,inhibition [%]
CC(=O)OCC1=C(C(=O)O)N2C(=O)[C@@H](NC(=O)Cc3cccs3)[C@H]2SC1,37.7
COC(=O)[C@H](CCSC)NC(=O)c1ccc(NC[C@@H](N)CS)cc1-c1ccccc1,57.8
CCOC(=S)SSC(=S)OCC,99.1

# Series 2 — method: RNA Bind-n-Seq; molecule type: RNA; sample: in vitro; concentration: 20 nM; notes: 6-mer, flanks averaged, single round; with: 150 mM LiCl; relative to: input library; direction: higher = stronger binding
# Target: TAR DNA-binding protein 43, full length, His tag (TARDBP, Homo sapiens, UniProt Q13148, residues 1-414)
Oligonucleotide,6-mer enrichment (R)
UAUGCC,1
CCGCCC,1.13
GUUGGC,1.09
GUGUGC,1.77
UGAUAG,0.99
CUCAGU,0.898
UGUGGU,1.66
GCUCGC,0.854

# Series 3 — mode: inhibitor; concentration: 20 µM
# Target: Replicase polyprotein 1ab, nsp13 helicase (rep, Severe acute respiratory syndrome coronavirus 2, UniProt P0DTD1)
SMILES,inhibition
Cc1[nH]c(=O)c(C#N)cc1-c1ccc2nccn2c1,-3.22%
COc1cc([S+](C)[O-])ccc1-c1nc2cccnc2[nH]1 (centres unmarked),0.78%
COc1cc(NS(C)(=O)=O)ccc1Nc1c2ccccc2nc2ccccc12,32.3%
O=C1CNC(=O)CN1,6.02%
Cc1ccccc1OCC(O)CNCCOc1ccc(C(N)=O)cc1 (centres unmarked),0.07%
CN(C)CCOc1cc(-c2cn[nH]c2)ccc1NC(=O)C1COc2ccccc2O1 (centres unmarked),4.93%
O=C(Nc1nc2cccc(-c3ccc(CN4CCS(=O)(=O)CC4)cc3)n2n1)C1CC1,0.99%
CN(Cc1cnc2nc(N)nc(N)c2n1)c1ccc(C(=O)N[C@@H](CCC(=O)O)C(=O)O)cc1,15.9%
C=CCNc1c(O)cc2c(O)c1C[C@@H](C)C[C@H](OC)[C@H](O)[C@@H](C)/C=C(\C)[C@H](OC(N)=O)[C@@H](OC)/C=C\C=C(/C)C(=O)N2,8.14%
Cn1cc([S+](C)[O-])c(=O)c2ccc(F)cc21 (centres unmarked),1.42%
Oc1ccc2c3c1O[C@H]1c4[nH]c5ccccc5c4C[C@@]4(O)[C@@H](C2)N(CC2CC2)CC[C@]314,0.27%
Cc1cccc(CC(=O)N2CCc3c2ccc(-c2cn(C)c4ncnc(N)c24)c3F)n1,7.65%
COc1cc(C(=O)NCC2(N(C)C)CCCC2)cc(OC)c1OCc1ccccc1,-1.36%
COc1ccc(-c2nc(C(=O)N3CCN(C)CC3)sc2-c2ccc(OC)cc2)cc1,-2.4%
O=C(O)C1=CCCNC1,8.76%
O=C(/C=C\n1cnc(-c2cc(C(F)(F)F)cc(C(F)(F)F)c2)n1)N1CC(F)(F)C1,3.84%
CN(C)CCOC(=O)C(c1ccccc1)C1(O)CCCC1 (centres unmarked),-3.25%
Cc1cccc(Nc2cc(Cl)nc(SCC(=O)O)n2)c1C,0.77%
O=C(O)CCC(=O)C(=O)O,3.83%
CCCCCOc1c(OC)ccc2cc(C(=O)NCc3ccc4c(c3)OCO4)c(=O)[nH]c12,7.61%
Cc1ncc(CN2CC=C(c3ccccc3)CC2)c(N)n1,5.92%
COc1cc2ncnc(Sc3nnc(C)s3)c2cc1OC,-1.11%
CC(C)=CCC/C(C)=C/CC/C(C)=C/CC[C@]1(C)CCc2cc(O)cc(C)c2O1,3.68%
COc1ccc(-c2oc3cc(OC)ccc3c2C(=O)c2ccc(C#N)cc2)cc1,0.24%
CC(=O)OCC(=O)NCCCOc1cccc(CN2CCCCC2)c1,7.44%

# Series 4 — method: competition protein-binding microarray; molecule type: double-stranded DNA, one strand shown; sample: in vitro; concentration: 2 µM; with: Cbf1 competitor, 0.05 µM; direction: higher = stronger binding; shared flanks, not repeated: … GTCTTGATTCGCTTGACGCTGCTG
# Target: Phosphate system positive regulatory protein PHO4, full length, GST-tagged (PHO4, Saccharomyces cerevisiae, UniProt P07270, residues 1-312)
# Notes: whole 60-bp probe, lowest competitor level
# Residues (chain): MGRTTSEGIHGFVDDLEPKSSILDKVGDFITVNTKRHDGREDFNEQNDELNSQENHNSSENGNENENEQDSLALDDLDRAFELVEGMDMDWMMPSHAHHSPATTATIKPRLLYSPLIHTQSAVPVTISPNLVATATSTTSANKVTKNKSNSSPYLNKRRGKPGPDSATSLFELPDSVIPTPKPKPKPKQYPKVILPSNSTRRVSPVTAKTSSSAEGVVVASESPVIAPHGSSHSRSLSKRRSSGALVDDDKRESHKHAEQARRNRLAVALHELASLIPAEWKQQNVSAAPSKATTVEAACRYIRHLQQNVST
Oligonucleotide,fluorescence intensity [a.u.]
AAATTACTAAGTTGGTCAGTGGGTGACGCCGTATGA,3600
AGGTTTTGCTAAATCTATGTGACAGTAATGACCAGG,3530
CTTTCCCGATCTTGCGCTGTGGGTGTAGCACATTTG,4650
AGTAATAGATCTCGGCACGTGGCCGCATTGACTCCG,18300
CTTTCCCGATCTTGAGTTGTGGGTGTAGCACATTTG,4840
CCGCTAATAACCGTCCCCGTGACGGAGTACCTATCG,8070
CATACCCAACCTTTTCACGTGCTCTAAGATATTTGT,19400
GTCTTGTCTCATTTTCACGTGCGGTTCCCCACTTCA,13200

# Series 5 — method: EMSA with sequencing; molecule type: double-stranded DNA, one strand shown; sample: in vitro; concentration: 10 and 20 nM; relative to: negative control set to 0; direction: higher = stronger binding
# Target: Hepatocyte nuclear factor 3-alpha (Foxa1, Mus musculus, UniProt P35582, residues 1-468, full length assumed)
# Notes: whole designed probe, mean of two concentrations, ends assumed
# Shared flanks, not repeated: GTGAGCGGTGCCCATTGATGGGGAAC … TTTCACTGGGATCGTGGGGAC
# Target sequence (chain): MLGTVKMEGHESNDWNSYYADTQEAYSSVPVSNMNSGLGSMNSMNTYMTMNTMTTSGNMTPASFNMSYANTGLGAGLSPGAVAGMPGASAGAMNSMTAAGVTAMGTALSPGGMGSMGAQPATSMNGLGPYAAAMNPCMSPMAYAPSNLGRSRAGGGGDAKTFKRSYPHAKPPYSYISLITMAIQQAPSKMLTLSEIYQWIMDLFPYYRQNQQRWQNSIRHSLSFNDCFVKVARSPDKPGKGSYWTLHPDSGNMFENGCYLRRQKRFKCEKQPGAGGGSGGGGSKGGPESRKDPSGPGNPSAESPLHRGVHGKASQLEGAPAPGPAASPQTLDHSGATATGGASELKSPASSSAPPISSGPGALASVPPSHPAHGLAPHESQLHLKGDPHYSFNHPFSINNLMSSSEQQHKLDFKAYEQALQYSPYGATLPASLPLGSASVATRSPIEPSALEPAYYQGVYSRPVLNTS
Oligonucleotide,normalised bound fraction [ratio]
ATGACTGACATAGATACATCTCTCAGAGTGAATAGGAAATCATTAACAACTATTTCATGAGTGAAGTTTCAATATATTTTTTAAAATTCAGAGTAATCTTCAAGATGGACTTTATTTTACCTAACACAACAATTCGGTCACCCTGTCATCCTAAAAATCTCTATAAGTAAAACTGATTGTAAGGATATGTTAA,-0.0295
ACTTTCATATGCTTCTGTAAAACCATCAAGCTGAATCGAATTCTCTTCAGGTATTCTTATCTCCCCGTAACTTGCCTTTGGTTCAGTCTCCATGTTTACATTCCCTTTATTTACAGGACTCCGCCTTTTATCTTTCTTTTGAGCTAAAAAAGCAACCTGGCTGGAGGTAATTATACTGAGAAATTCTGTATCA,0.303
TCCTCAGGCTAAAAGCCAGCAAAAAGAATCACCTGGCCAAACATCCCCTTTCAGTCTGCTTTCCTTAGAATGGCCTCCCAGGGGAGCTCTCTGGGCAAACAAAGCTGTTGACCTAGTTTGAAGGCCTGGAAAATTATCATGTGAGTCACTGGGACAACAGAGCAAAGTGCCAGGCCCCTGAGAAACTGTAAGC,0.186
TTTTTTCTGTACAGGGAAAAATAGTGAATATTTCAAAATTGTGAAACAAAGAGTCTCTGTGGCAACTACTCATTGTTGCATAACAGACAATATGCAATCTAATGAGTGTGTCTGTGTTCCAATAAAACTGTATTTACAAAAGCAGAAGGCCACCCATGTGCCAATGTCCAAAGTTTCTCAACCAACCCCTGGT,0.123
CTGTTCCAGACCCTAGTCTTTCAATCTAATGTTTATACACAAATCTAGATTCAGATATCTATTTTGAATTTCATTTAGGTTTTTGTTTCTAAGTAAACATCAGAGGATTAGTTTGGGTTTTGTTCACCCATGTCTTTTAAAGTTCTAAAGAACCTTTGTATCTAAGCTCAACTTTATATTTAAGTTCAACTGC,0.46
CCCTCATCCTGGGTGTCGGGGTGGGAGGTGTTCTCATCATGAATGGGAGGCGTACCCAGATCCAGCTCTGCCTTTTTTTAACCAAACCACATTTGTTTACACTCGCTGTTAATCGACATAGCAAGTGACTCACCAGATATGATACATGCCAGGAGAGAAAAAGAAAGTGCTGATGGAAAAATAATCTCATTAG,0.33
CAGGTTCTCCAGACTAACTAGACATTGGCAGGGTTGACTGATATTCTGCCAGCAAATCCCTCTTCTGCTCTAGTCAGCCAGGGCTGGTGACTGTGTAAACAAGACCCCTCTCACTCCTCCCACAGCTGTGCTGCAGATGACACACACACTTCTCTTAACAATTTTTATTGAAGAAAAAATAGGCTGCTTTGCA,0.429
TAAAATGGAAGCATGCAAGTTTAGATTGAAAGAGAAAATATAAGCTTCAAAAACTCTTTAGTTCTACATTTTACAAAAGTAATCTTTTTACAAAGTAATCTTAAAGTAATCTTTATGATAGTAATTACTATCATACCACAGGTATAAACAGTAACTTGGAAAAATTTTCCCTTTTAAGACCTTGCATAAAACA,-0.0548

# Mixed results
SMILES,cell line,test,test system,setting,scale,quantity,value
CC(C)[C@H]1CC[C@H](C(=O)N[C@H](Cc2ccccc2)C(=O)O)CC1,HEK-293T,"pseudovirus infection, FDA-approved drug library screen",VSV pseudotyped with SARS-CoV-2 spike,"10 µM, 16 h",relative to: vehicle-treated,GFP-positive cells,71.9%

# A few entries again (series 5):
Oligonucleotide,normalised bound fraction [ratio]
ACTTTCATATGCTTCTGTAAAACCATCAAGCTGAATCGAATTCTCTTCAGGTATTCTTATCTCCCCGTAACTTGCCTTTGGTTCAGTCTCCATGTTTACATTCCCTTTATTTACAGGACTCCGCCTTTTATCTTTCTTTTGAGCTAAAAAAGCAACCTGGCTGGAGGTAATTATACTGAGAAATTCTGTATCA,0.303
TCCTCAGGCTAAAAGCCAGCAAAAAGAATCACCTGGCCAAACATCCCCTTTCAGTCTGCTTTCCTTAGAATGGCCTCCCAGGGGAGCTCTCTGGGCAAACAAAGCTGTTGACCTAGTTTGAAGGCCTGGAAAATTATCATGTGAGTCACTGGGACAACAGAGCAAAGTGCCAGGCCCCTGAGAAACTGTAAGC,0.186
TTTTTTCTGTACAGGGAAAAATAGTGAATATTTCAAAATTGTGAAACAAAGAGTCTCTGTGGCAACTACTCATTGTTGCATAACAGACAATATGCAATCTAATGAGTGTGTCTGTGTTCCAATAAAACTGTATTTACAAAAGCAGAAGGCCACCCATGTGCCAATGTCCAAAGTTTCTCAACCAACCCCTGGT,0.123
CTGTTCCAGACCCTAGTCTTTCAATCTAATGTTTATACACAAATCTAGATTCAGATATCTATTTTGAATTTCATTTAGGTTTTTGTTTCTAAGTAAACATCAGAGGATTAGTTTGGGTTTTGTTCACCCATGTCTTTTAAAGTTCTAAAGAACCTTTGTATCTAAGCTCAACTTTATATTTAAGTTCAACTGC,0.46
